Published values gathered from unrelated publications.
Parts stem from different laboratories: compare values within a part only.
UniProt Q6ZN16, sequence (whole entry, looked up): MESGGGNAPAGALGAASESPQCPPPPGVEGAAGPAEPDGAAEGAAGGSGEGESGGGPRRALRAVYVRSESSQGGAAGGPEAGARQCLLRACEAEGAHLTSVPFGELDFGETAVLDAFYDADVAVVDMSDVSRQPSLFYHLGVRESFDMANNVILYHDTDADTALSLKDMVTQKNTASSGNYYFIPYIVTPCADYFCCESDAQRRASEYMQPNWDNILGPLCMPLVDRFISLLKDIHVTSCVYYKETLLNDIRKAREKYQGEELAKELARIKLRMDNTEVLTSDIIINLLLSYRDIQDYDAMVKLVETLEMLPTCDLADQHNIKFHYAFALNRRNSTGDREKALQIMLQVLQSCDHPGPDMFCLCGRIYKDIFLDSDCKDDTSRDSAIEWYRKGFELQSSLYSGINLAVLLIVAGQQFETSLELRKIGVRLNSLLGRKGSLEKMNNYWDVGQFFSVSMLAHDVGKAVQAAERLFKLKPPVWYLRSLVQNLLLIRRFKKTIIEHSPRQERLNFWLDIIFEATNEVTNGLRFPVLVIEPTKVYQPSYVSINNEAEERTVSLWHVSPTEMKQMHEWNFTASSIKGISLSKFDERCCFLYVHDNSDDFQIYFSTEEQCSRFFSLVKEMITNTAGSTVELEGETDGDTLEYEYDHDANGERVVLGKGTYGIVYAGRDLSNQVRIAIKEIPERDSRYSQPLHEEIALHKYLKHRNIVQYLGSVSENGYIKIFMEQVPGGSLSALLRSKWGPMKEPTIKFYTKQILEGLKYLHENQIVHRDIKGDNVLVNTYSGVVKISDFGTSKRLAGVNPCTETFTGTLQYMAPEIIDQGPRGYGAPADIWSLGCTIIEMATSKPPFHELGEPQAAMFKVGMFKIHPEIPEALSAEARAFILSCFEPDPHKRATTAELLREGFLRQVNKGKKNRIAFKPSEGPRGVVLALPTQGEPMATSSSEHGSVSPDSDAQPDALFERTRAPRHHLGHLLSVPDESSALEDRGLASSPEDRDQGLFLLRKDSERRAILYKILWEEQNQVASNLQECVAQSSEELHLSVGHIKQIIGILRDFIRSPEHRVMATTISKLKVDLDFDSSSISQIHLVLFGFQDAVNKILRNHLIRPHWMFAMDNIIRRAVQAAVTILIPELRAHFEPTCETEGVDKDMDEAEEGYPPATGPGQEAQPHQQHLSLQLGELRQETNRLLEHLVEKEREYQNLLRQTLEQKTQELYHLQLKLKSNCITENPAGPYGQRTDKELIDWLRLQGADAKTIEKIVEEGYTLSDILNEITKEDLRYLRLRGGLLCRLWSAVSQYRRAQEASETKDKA
UniProt Q8NE63, sequence (whole entry, looked up): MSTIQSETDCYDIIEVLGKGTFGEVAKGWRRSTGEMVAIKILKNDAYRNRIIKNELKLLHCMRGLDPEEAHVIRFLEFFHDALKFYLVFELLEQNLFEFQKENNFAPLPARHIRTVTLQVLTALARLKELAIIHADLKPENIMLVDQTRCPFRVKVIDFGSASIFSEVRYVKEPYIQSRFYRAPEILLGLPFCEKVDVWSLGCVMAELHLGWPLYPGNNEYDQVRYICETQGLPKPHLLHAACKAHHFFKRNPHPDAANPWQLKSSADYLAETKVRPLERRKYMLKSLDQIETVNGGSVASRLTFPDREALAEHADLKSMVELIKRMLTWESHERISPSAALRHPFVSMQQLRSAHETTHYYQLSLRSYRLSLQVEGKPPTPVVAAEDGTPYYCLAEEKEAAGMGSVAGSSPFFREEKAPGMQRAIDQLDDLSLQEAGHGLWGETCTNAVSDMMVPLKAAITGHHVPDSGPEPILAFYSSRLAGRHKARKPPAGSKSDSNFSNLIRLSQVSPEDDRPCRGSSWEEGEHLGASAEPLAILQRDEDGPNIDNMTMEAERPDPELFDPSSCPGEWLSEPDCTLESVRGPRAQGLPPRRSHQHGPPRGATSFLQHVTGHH
UniProt Q08881, sequence (whole entry, looked up): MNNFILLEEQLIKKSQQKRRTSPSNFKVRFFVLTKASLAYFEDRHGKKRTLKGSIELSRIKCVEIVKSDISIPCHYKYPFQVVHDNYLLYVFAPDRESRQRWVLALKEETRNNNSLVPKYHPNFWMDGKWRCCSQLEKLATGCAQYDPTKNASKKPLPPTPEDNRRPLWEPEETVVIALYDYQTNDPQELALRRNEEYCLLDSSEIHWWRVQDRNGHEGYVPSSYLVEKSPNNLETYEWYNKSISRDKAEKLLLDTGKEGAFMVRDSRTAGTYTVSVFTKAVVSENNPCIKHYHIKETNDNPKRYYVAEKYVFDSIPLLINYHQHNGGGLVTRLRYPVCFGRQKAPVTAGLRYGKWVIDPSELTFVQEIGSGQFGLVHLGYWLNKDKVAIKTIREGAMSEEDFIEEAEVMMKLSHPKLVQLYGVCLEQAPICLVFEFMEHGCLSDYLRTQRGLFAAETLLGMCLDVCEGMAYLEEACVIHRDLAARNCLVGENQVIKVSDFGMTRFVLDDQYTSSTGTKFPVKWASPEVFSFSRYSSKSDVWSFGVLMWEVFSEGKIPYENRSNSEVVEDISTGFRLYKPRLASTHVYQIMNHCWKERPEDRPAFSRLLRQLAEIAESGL
UniProt Q12866, sequence (whole entry, looked up): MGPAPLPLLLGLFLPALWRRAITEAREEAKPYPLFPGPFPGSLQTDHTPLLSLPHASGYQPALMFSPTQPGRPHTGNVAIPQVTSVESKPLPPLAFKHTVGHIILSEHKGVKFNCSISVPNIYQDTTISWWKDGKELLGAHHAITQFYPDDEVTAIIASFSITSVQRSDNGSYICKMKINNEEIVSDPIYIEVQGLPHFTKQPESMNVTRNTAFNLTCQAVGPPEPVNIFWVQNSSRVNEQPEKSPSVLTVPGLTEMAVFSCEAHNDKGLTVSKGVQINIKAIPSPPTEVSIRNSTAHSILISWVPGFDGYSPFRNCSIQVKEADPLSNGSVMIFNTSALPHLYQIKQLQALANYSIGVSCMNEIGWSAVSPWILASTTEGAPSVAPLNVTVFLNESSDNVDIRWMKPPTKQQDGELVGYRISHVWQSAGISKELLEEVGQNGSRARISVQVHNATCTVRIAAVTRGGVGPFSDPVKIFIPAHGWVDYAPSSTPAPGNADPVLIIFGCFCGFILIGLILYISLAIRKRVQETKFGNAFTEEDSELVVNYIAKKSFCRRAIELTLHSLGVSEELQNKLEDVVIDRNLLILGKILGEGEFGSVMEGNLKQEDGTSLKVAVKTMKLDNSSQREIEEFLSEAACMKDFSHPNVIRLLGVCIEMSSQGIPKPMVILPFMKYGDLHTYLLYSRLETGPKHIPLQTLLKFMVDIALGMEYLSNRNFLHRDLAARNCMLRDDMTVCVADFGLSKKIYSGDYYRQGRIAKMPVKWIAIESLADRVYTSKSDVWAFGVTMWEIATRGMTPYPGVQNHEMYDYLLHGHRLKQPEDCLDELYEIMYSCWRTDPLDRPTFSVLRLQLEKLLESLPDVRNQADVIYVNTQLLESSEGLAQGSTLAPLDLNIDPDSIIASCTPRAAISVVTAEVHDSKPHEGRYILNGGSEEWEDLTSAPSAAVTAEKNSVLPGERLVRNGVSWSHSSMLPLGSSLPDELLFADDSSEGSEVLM
UniProt Q8TF76, sequence (whole entry, looked up): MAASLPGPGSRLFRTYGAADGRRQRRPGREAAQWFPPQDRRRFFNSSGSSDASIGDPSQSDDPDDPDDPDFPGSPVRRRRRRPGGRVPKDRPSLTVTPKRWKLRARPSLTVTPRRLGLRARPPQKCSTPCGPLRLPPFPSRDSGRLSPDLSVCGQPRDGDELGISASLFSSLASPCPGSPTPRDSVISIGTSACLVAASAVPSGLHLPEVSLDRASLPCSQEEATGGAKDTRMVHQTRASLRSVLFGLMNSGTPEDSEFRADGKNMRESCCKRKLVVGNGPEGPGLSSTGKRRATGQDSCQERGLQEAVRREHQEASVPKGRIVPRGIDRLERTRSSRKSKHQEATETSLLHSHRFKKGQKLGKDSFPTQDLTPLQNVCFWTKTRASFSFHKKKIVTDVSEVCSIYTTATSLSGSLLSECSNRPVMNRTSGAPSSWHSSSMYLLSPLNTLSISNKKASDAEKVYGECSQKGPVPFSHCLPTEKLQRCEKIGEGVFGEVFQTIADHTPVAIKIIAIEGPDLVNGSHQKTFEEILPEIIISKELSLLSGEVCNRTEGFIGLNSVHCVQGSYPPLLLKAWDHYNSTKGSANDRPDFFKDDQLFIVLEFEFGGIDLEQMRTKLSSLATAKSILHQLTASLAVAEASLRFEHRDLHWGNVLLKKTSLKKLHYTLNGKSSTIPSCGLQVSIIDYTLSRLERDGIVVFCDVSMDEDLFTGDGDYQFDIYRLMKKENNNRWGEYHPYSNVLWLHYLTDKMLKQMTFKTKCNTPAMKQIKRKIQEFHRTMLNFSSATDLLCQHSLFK

Sample 1 — read-out: cell-free assay; technique: competition with immobilised ligand; tested at: 1 µM
Structure (SMILES): CCS(=O)(=O)c1cc2cc(C[C@](O)(CC(C)(C)c3ccc(F)cc3C(N)=O)C(F)(F)F)[nH]c2cn1
| target | remaining binding [%] |
| --- | --- |
| LATS2 (Homo sapiens, UniProt Q9NRM7) | 40 |
| GRK4 (Homo sapiens, UniProt P32298) | 100 |
| FLT1 (Homo sapiens, UniProt P17948) | 81 |
| HIPK4 (Homo sapiens, UniProt Q8NE63) | 100 |
| EIF2AK1 (Homo sapiens, UniProt Q9BQI3) | 100 |
| ACVR2B (Homo sapiens, UniProt Q13705) | 98 |
| STK38L (Homo sapiens, UniProt Q9Y2H1) | 45 |
| HASPIN (Homo sapiens, UniProt Q8TF76) | 100 |
| FLT3 (Homo sapiens, UniProt P36888, D835V/ITD) | 86 |
| NEK10 (Homo sapiens, UniProt Q6ZWH5) | 100 |
| EPHB2 (Homo sapiens, UniProt P29323) | 100 |
| MINK1 (Homo sapiens, UniProt Q8N4C8) | 89 |
| MAP3K15 (Homo sapiens, UniProt Q6ZN16) | 97 |
| ITK (Homo sapiens, UniProt Q08881) | 100 |
| OXSR1 (Homo sapiens, UniProt O95747) | 90 |
| MERTK (Homo sapiens, UniProt Q12866) | 100 |

Sample 2 — read-out: enzyme activity; mode: inhibitor; tested at: 10 µM
Target: Calcium/calmodulin-dependent protein kinase type II subunit alpha (CAMK2A, Homo sapiens, UniProt Q9UQM7)
UniProt Q9UQM7, sequence (whole entry, looked up): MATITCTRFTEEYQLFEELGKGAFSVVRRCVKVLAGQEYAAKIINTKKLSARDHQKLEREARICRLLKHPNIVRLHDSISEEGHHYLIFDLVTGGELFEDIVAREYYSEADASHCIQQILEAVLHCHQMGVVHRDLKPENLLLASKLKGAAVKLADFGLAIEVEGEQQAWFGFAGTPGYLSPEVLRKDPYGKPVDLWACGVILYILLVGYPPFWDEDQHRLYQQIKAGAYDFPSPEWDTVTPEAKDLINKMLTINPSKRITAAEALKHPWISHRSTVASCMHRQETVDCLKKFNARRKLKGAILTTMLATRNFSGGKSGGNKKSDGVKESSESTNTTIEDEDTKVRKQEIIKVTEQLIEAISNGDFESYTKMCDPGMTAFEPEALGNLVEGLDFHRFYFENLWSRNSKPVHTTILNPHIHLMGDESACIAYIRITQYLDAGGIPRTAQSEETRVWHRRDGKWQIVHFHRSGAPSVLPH
| SMILES | inhibition |
| --- | --- |
| CC(=O)CCCC(C)CCCC(C)CCCC(C)C (centres unmarked) | 44% |
| CC(C)OC(=O)[C@H](C)N[P@](=O)(OC[C@H]1O[C@@H](n2ccc(=O)[nH]c2=O)[C@](C)(F)[C@@H]1O)Oc1ccccc1 | 2% |
| CC(C)=CCc1cc2ccc(=O)oc2cc1O | -34% |
| CCOc1ccc2ccc(=O)oc2c1 | -16% |
| O=C1C[C@@H](c2ccc(O)cc2)Oc2cc(O[C@@H]3O[C@H](CO)[C@@H](O)[C@H](O)[C@H]3O)ccc21 | -32% |
| CC(C)(C)NC(=O)[C@@H]1CN(Cc2cccnc2)CCN1C[C@@H](O)C[C@@H](Cc1ccccc1)C(=O)N[C@H]1c2ccccc2C[C@H]1O | -9% |
| O=C1c2ccccc2C(=O)c2c1ccc(O)c2O | 8% |
| Cc1cncc(C)n1 | -11% |

Sample 3 — cell line: HaCaT; tested at: 100 µM; time: 18 h
| SMILES | viability |
| --- | --- |
| Clc1ccc(C(Cn2ccnc2)OCc2ccsc2Cl)c(Cl)c1 (centres unmarked) | 15.8% |
| CCCN(CCC)C(=O)C(CCC(=O)O)NC(=O)c1ccccc1 (centres unmarked) | 97.3% |
| C[C@]12C=CC(=O)N[C@@H]1CC[C@@H]1[C@@H]2CC[C@]2(C)[C@@H](C(=O)Nc3cc(C(F)(F)F)ccc3C(F)(F)F)CC[C@@H]12 | 112% |
| Cc1nccn1CC1CCc2c(c3ccccc3n2C)C1=O (centres unmarked) | 65% |
| COC(=O)[C@H]1[C@H]2C[C@@H]3c4[nH]c5cc(OC)ccc5c4CCN3C[C@H]2C[C@@H](OC(=O)c2cc(OC)c(OC)c(OC)c2)[C@@H]1OC | 82.1% |

Sample 4 — tested at: 1 µM
Compound: Cc1ccc(NC(=O)c2ccnc(C(F)(F)F)c2)cc1-c1cc(OCCO)nc(N2CCOCC2)c1
| target | test | conditions | how to read | remaining binding [%] |
| --- | --- | --- | --- | --- |
| JAK3 (Homo sapiens, UniProt P52333) | competitive binding panel | JH1 catalytic domain | reference: vehicle | 72 |
| DCLK2 (Homo sapiens, UniProt Q8N568) | competitive binding panel, item: DCAMKL2 |  | reference: vehicle | 100 |
| MAP3K15 (Homo sapiens, UniProt Q6ZN16) | competitive binding panel |  | reference: vehicle | 66 |
| HIPK4 (Homo sapiens, UniProt Q8NE63) | competitive binding panel |  | reference: vehicle | 98 |
| MAPK14 (Homo sapiens, UniProt Q16539) | competitive binding, scanMAX | p38-alpha, 1000 nM |  | 26 |
| RPS6KA4 (Homo sapiens, UniProt O75676) | competitive binding scan | N-terminal kinase domain 1 |  | 100 |
| PIK3CA (Homo sapiens, UniProt P42336) | competitive binding panel |  | reference: vehicle | 98 |
| MAP3K19 (Homo sapiens, UniProt Q56UN5) | competitive binding panel, item: YSK4 |  | reference: vehicle | 81 |
| Aurora kinase A (AURKA, Homo sapiens, UniProt O14965) | competitive binding panel |  | reference: vehicle | 98 |

Repeated from above (sample 1):
| target | remaining binding [%] |
| --- | --- |
| ACVR2B (Homo sapiens, UniProt Q13705) | 98 |
| STK38L (Homo sapiens, UniProt Q9Y2H1) | 45 |
| HASPIN (Homo sapiens, UniProt Q8TF76) | 100 |
| FLT3 (Homo sapiens, UniProt P36888, D835V/ITD) | 86 |
| NEK10 (Homo sapiens, UniProt Q6ZWH5) | 100 |
| EPHB2 (Homo sapiens, UniProt P29323) | 100 |
